Experimental data from different studies.
Each numbered part is a random draw from the data of one study; scales do not carry over between parts. “And” joins repeats or separate records; there may be more than shown.

Set 1
Cell line: mouse MPNST tumor cells
Technique: high-content immunofluorescence imaging
Item: nuclear SOX9
Concentration: 10 µM
Time: 12 h
Notes: mean of 2 replicates
Reference: DMSO control
Reading: higher = more nuclear SOX9
Measurement: nuclear SOX9 intensity
CC(CNC1CCCCC1)OC(=O)c1ccccc1 (centres unmarked): 102 % of DMSO
Cc1ccc(C(=O)c2ccc(CC(=O)O)n2C)cc1: 105 % of DMSO
CC(C)NC(=N)NC(=N)Nc1ccc(Cl)cc1: 88.7 % of DMSO and 93 % of DMSO
Nc1[nH]ncc1-c1cc(Cl)ccc1Oc1cc(F)c(S(=O)(=O)Nc2cscn2)cc1Cl: 124 % of DMSO
Cc1c(F)cc(C(=O)NC2CC2)cc1-c1c(F)cn2c(C(C)(C)C)nnc2c1F: 96.5 % of DMSO
CC12CCC(=O)C=C1CCC1C2C(O)CC2(C)C1CCC2(O)C(=O)CO (centres unmarked): 86.7 % of DMSO
Cc1ccc(N(CC2=NCCN2)c2cccc(O)c2)cc1: 118 % of DMSO and 119 % of DMSO
CCN(CC)Cc1ccc(C(=O)N(CCc2ccccc2OC)[C@@H]2CCNC2)cc1: 142 % of DMSO
CCCCC(O)c1ccccc1 (centres unmarked): 98.5 % of DMSO
O=C(COCC(=O)N1CCN(C(c2ccccc2)c2ccccc2)CC1)Nc1ccc(Cl)cc1C(=O)O: 88.8 % of DMSO
Nc1ncnc2c1ncn2C1CCCO1 (centres unmarked): 90.2 % of DMSO
CCS(=O)(=O)N(C)[C@H]1c2cc(C#N)ccc2OC(C)(C)[C@@H]1O: 100 % of DMSO
O=S1(=O)N[C@H]2CCCN2c2ccccc21: 102 % of DMSO
NC(=O)c1ncn([C@@H]2O[C@H](CO)[C@@H](O)[C@H]2O)c1N: 92 % of DMSO
CCOC(=O)C1=C(C)NC(C)=C(C(=O)OC)C1c1cccc([N+](=O)[O-])c1 (centres unmarked): 118 % of DMSO and 108 % of DMSO

Set 2
Target: 5-hydroxytryptamine receptor 1D (HTR1D, Homo sapiens, UniProt P28221)
UniProt P28221, sequence (whole entry, looked up): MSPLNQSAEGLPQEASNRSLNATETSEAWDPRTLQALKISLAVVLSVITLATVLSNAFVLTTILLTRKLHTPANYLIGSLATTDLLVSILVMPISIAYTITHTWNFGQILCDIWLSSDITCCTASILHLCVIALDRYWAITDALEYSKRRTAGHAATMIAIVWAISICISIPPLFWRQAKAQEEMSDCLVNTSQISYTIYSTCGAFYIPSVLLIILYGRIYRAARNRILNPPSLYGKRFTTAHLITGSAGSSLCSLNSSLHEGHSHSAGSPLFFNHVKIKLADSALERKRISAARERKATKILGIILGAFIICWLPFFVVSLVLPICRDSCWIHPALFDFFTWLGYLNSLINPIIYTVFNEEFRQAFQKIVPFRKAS
Observed: ligand displacement
Technique: radioligand
Concentration: 10 µM
Measurement: inhibition
CN1CCN(C(=O)C(C)(C)c2ccc(C(=O)Nc3cn4cc(-c5ccncc5)ccc4n3)cc2)CC1: 5.95%
CC(=O)N1CCC(c2ccc(C(=O)NC(=N)N)cc2C(F)(F)F)CC1: 34%
FC(F)(F)c1ccc2c(c1)nc(-c1cccnc1)n2C1CC1: 6.79%
C[C@H](NC(=O)c1cnc2n1[C@](C)(Cc1ccc(C#N)cc1)C(=O)N2c1cc(Cl)c(F)c(Cl)c1)C(=O)NC1(c2ccccn2)CC1: 12%
O=C(N1CCS(=O)(=O)CC1)N1C[C@H](c2ccc(OC(F)(F)F)cc2)C[C@H](c2nc(C3CC3)no2)C1: 5.17%
CCOCCn1cc(C(=O)Nc2ccc(-n3nc(-c4cccnc4)cc3C(F)(F)F)cn2)ccc1=O: 0.593%
Cc1c(NC(=O)c2cc(C(N)=O)nc3cc(F)ccc23)c(C(F)(F)F)nn1Cc1ccc(C(C)(C)C)cc1: -4.9%
Cc1nc(N2CC[C@@H](O)C2)ncc1-c1cc(C(F)(F)F)cc2[nH]ncc12: -8.55%

Set 3
Cell line: HaCaT
Concentration: 100 µM
Time: 18 h
Measurement: viability
Nc1nc(Cl)nc2c1ncn2[C@H]1C[C@H](O)[C@@H](CO)O1: 107%
CC(=O)/N=c1/sc(S(N)(=O)=O)nn1C: 98.1%
Cc1cc(N)c2ccccc2[n+]1CCCCCCCCCC[n+]1c(C)cc(N)c2ccccc21: 77.4%
C[C@H](CCC(=O)O)[C@H]1CC[C@H]2[C@@H]3CC[C@@H]4C[C@H](O)CC[C@]4(C)[C@H]3C[C@H](O)[C@]12C: 94.4%
CC[C@@H]1/C=C(\C)C[C@H](C)C[C@H](OC)[C@H]2O[C@@](O)(C(=O)C(=O)N3CCCC[C@H]3C(=O)O[C@H](/C(C)=C/[C@@H]3CC[C@H](Cl)[C@H](OC)C3)[C@H](C)[C@@H](O)CC1=O)[C@H](C)C[C@@H]2OC: 77.3%
O=C1c2cccc3c2[C@H](CCC3)CN1[C@@H]1CN2CCC1CC2: 53.9%
CC(=O)O[C@]1(C(C)=O)CC[C@H]2[C@@H]3C=C(C)C4=CC(=O)CC[C@]4(C)[C@H]3CC[C@@]21C: 61.9%
C[C@@H]1O[C@@H](OC[C@H]2O[C@@H](Oc3c(-c4ccc(O)c(O)c4)oc4cc(O)cc(O)c4c3=O)[C@H](O)[C@@H](O)[C@@H]2O)[C@H](O)[C@H](O)[C@H]1O: 107%
CC[C@@H]1C(=O)OC[C@@H]1Cc1cncn1C: 111%
CNS(=O)(=O)Cc1ccc2[nH]cc(CCN(C)C)c2c1: 92.8%
COc1ccc2c(c1)c(CC(=O)O)c(C)n2C(=O)c1ccc(Cl)cc1: 97.1%
O=C(NCCN1CCOCC1)c1ccc(Cl)cc1: 115%
Cc1cccc(C)c1NC(=O)C1CCCCN1C (centres unmarked): 110%
Cc1nc(-c2ccc(OCC(C)C)c(C#N)c2)sc1C(=O)O: 97.1%
CC[C@H]1OC(=O)[C@H](C)[C@@H](O[C@H]2C[C@@](C)(OC)[C@@H](O)[C@H](C)O2)[C@H](C)[C@@H](O[C@@H]2O[C@H](C)C[C@H](N(C)C)[C@H]2O)[C@](C)(O)C[C@@H](C)CN(C)[C@H](C)[C@@H](O)[C@]1(C)O: 117%
CN1C[C@@H]2C[C@H]1CN2c1cc2c(cc1F)c(=O)c(C(=O)O)cn2C1CC1: 95.2%
O=C1c2c(O)ccc(O)c2C(=O)c2c(NCCNCCO)ccc(NCCNCCO)c21: 21.7%
CN1CCN(c2c(F)cc3c(=O)c(C(=O)O)cn4c3c2OCN4C)CC1: 107%
O=C(Nc1ccccc1)OCC(CN1CCCCC1)OC(=O)Nc1ccccc1 (centres unmarked): 62%
NC12CC3CC(CC(C3)C1)C2: 98.3%

Further values, each from its own experiment
COc1ccc(-c2c(Nc3ccccn3)[nH]c3c(C4=CCCCC4)c(-c4ccccc4)nn3c2=O)cc1
last measurable concentration (LC-MS/MS non-compartmental; human, plasma; oral, 200 mg twice daily, 24 h, cycle 1): 8940 ng/mL

Excerpt of the above (set 2):
Cc1nc(N2CC[C@@H](O)C2)ncc1-c1cc(C(F)(F)F)cc2[nH]ncc12: -8.55%
Cc1c(NC(=O)c2cc(C(N)=O)nc3cc(F)ccc23)c(C(F)(F)F)nn1Cc1ccc(C(C)(C)C)cc1: -4.9%
O=C(N1CCS(=O)(=O)CC1)N1C[C@H](c2ccc(OC(F)(F)F)cc2)C[C@H](c2nc(C3CC3)no2)C1: 5.17%
CN1CCN(C(=O)C(C)(C)c2ccc(C(=O)Nc3cn4cc(-c5ccncc5)ccc4n3)cc2)CC1: 5.95%
